Results collected from several papers.
Each line is one published result; not all experiments were run side by side. Numbers after ± are the reported error.
TMPRSS2: Transmembrane protease serine 2 (TMPRSS2, Homo sapiens, UniProt O15393)
Sequence of UniProt O15393 (whole entry, looked up): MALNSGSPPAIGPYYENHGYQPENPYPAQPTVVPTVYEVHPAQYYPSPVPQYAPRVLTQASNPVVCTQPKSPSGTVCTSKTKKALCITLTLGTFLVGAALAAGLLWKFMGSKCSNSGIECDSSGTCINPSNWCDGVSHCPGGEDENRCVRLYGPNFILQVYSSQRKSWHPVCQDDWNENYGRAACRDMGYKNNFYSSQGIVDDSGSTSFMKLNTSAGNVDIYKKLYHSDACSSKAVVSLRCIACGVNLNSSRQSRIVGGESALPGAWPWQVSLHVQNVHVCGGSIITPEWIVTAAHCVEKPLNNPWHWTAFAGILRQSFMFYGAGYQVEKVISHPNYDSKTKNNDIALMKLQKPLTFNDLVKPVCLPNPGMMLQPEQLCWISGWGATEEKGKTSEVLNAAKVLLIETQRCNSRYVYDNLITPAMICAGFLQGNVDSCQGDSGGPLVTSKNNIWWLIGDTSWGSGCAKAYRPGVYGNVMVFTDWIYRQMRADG
FGFR1: Fibroblast growth factor receptor 1 (FGFR1, Homo sapiens, UniProt P11362)
Sequence of UniProt P11362 (whole entry, looked up): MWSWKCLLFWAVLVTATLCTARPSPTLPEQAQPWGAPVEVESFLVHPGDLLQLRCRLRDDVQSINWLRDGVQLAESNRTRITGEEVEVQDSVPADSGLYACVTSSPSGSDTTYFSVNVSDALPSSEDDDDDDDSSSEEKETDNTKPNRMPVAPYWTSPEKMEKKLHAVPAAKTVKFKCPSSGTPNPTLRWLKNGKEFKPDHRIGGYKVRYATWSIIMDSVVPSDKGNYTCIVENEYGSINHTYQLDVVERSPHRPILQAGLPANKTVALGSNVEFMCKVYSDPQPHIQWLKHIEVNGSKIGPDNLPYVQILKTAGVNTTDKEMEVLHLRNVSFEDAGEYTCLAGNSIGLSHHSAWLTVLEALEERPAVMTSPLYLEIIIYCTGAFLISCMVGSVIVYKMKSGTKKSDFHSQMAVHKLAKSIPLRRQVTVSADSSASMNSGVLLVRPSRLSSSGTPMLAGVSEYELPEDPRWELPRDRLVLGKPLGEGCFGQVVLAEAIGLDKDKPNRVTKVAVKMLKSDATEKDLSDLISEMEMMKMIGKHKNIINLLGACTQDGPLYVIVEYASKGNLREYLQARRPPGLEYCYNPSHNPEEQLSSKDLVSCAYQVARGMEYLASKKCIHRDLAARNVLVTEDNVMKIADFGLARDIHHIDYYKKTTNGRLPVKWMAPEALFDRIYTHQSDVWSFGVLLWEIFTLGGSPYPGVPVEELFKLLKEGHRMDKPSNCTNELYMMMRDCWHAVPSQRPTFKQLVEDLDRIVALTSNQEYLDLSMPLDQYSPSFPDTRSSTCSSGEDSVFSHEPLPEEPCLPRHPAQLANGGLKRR
DDR1: Epithelial discoidin domain-containing receptor 1 (DDR1, Homo sapiens, UniProt Q08345)
Sequence of UniProt Q08345 (whole entry, looked up): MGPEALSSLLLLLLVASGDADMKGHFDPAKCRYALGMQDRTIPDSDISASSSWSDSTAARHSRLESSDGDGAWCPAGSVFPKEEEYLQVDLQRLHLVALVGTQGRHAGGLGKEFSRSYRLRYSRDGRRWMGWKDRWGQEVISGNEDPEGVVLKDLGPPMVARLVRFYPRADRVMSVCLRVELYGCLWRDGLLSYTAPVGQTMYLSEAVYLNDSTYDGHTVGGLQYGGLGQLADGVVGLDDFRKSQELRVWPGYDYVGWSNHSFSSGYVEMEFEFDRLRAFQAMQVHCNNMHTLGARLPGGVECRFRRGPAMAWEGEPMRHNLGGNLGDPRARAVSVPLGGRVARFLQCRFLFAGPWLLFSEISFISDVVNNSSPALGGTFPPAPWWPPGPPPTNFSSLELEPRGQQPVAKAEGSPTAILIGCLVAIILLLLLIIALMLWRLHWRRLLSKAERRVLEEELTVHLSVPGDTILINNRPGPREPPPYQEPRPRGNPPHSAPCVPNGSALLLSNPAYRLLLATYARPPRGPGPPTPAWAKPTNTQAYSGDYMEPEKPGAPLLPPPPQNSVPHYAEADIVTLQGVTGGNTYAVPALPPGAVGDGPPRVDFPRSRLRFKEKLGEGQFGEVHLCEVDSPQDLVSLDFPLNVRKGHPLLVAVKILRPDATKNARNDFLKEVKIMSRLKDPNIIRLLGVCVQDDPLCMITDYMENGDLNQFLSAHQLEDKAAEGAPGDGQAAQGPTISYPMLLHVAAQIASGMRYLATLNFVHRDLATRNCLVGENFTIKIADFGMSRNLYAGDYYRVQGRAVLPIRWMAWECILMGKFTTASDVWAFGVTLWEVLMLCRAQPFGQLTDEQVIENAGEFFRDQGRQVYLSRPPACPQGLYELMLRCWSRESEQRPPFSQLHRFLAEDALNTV
Trpv1: Transient receptor potential cation channel subfamily V member 1 (Trpv1, Rattus norvegicus, UniProt O35433)
Sequence of UniProt O35433 (whole entry, looked up): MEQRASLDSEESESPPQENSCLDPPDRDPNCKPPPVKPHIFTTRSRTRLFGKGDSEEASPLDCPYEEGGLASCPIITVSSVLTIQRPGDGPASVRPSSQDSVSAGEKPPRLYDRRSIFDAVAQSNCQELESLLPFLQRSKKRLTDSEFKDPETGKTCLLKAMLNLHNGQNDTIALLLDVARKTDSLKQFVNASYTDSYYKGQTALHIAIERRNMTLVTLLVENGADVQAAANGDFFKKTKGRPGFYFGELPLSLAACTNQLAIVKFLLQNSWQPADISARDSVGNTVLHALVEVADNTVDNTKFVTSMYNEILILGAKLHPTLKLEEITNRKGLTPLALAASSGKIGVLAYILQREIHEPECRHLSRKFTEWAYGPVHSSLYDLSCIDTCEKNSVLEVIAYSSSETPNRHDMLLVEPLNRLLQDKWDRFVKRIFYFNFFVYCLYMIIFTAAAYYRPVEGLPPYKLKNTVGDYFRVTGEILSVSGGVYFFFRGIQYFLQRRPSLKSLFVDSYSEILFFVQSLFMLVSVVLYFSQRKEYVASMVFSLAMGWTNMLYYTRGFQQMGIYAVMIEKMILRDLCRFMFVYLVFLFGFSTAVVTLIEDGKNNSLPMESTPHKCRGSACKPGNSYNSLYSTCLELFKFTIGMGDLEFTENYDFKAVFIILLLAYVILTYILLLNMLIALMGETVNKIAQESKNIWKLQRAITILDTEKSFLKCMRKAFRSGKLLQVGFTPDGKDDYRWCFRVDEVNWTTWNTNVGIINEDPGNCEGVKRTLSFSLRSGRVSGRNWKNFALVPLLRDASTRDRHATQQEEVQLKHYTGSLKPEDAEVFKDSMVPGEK
MEP cytidylyltransferase IspD: MEP cytidylyltransferase IspD (Plasmodium falciparum, UniProt Q8I273)
Sequence of UniProt P48775 (whole entry, looked up): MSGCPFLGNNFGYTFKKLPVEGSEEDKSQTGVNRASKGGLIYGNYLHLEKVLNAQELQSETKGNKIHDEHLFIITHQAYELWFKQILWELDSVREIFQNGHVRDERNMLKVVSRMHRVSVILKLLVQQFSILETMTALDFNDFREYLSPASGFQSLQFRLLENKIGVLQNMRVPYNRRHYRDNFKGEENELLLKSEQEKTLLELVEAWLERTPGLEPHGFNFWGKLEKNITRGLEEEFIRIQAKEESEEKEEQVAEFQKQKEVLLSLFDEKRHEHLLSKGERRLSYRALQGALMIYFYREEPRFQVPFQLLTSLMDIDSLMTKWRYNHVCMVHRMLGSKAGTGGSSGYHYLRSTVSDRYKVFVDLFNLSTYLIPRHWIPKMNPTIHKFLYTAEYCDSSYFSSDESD
Sequence of UniProt Q8NET8 (whole entry, looked up): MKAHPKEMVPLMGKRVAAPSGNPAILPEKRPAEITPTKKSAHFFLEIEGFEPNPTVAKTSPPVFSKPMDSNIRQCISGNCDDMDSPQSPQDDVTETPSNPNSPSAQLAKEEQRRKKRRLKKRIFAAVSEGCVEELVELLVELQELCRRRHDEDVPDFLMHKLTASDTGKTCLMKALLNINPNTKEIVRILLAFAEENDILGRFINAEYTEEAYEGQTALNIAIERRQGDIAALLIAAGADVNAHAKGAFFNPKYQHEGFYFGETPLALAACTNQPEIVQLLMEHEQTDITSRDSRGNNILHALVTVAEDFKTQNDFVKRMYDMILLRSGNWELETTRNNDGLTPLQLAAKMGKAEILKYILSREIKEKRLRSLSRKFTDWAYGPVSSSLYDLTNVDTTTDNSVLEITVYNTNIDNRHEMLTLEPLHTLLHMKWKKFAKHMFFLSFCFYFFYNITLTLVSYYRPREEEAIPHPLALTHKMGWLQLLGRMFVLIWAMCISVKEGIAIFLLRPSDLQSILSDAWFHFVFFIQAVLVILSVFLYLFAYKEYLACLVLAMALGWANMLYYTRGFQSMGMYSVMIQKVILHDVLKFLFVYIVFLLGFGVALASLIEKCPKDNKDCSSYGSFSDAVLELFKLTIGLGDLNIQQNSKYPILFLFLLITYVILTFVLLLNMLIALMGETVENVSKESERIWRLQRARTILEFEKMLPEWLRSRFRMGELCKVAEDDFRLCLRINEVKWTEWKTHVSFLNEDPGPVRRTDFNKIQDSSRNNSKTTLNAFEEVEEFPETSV
Sequence of UniProt P97689 (whole entry, looked up): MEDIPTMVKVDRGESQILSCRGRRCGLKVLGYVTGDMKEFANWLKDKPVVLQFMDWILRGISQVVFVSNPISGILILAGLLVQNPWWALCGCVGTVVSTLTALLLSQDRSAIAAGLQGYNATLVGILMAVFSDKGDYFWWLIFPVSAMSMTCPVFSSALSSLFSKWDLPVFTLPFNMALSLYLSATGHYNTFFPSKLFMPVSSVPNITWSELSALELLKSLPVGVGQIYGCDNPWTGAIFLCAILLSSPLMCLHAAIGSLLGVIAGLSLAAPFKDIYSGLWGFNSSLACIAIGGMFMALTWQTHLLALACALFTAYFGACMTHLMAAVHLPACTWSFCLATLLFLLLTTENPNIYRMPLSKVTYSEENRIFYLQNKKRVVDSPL
Sequence of UniProt Q9NYA1 (whole entry, looked up): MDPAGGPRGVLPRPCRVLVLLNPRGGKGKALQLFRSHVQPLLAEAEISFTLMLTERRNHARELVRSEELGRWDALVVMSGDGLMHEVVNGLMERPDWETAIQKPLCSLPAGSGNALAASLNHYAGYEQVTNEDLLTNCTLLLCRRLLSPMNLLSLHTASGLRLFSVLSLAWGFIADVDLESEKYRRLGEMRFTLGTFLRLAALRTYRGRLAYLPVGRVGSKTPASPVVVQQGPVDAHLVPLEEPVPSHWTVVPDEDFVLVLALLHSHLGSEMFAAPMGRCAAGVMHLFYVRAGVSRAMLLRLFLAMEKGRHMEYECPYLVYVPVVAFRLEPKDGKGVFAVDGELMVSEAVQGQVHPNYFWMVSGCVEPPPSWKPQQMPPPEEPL

With `Cc1ccc(C(=O)Nc2ccc(CN)cc2)c(O)c1` the IC50 was 4.9 µM (TMPRSS2; enzyme activity, inhibitor, fluorescence; with preincubation).
`Cc1ccc(CNC(=O)[C@H](CCCCNC(=O)OCc2ccccc2)NC(=O)[C@H](CC2CCCCC2)NC(=O)Cc2cccnc2)cc1` has an IC50 of 2.09 µM (20S proteasome (Plasmodium falciparum, UniProt A0A5K1K7U1+Q8IJT1); β5 activity, inhibitor; added: Suc-LLVY-AMC, PA28α-activated).
`CCN1CCC(N(C)C(=O)Cc2ccc(O)cc2Cl)C(C)C1` (stereo not drawn) gave an IC50 of 255 ± 10.4 µM (RPA1 (Homo sapiens, UniProt P27694); inhibitor, FRET).
`CC(C)c1cc2ccc3ccccc3c2oc1=O` has an IC50 of > 100 µM (SYK (Homo sapiens, UniProt P43405); enzyme activity, inhibitor, ADP detection).
The IC50 of `O=C1NCCc2c(Cc3ccc(Cl)cc3)[nH]c3c(F)ccc1c23` is reported as 0.15 µM (PDE5A (Homo sapiens, UniProt O76074); enzyme activity, inhibitor).
For `N=C(N)SCc1ccccc1CSC(=N)N`, the IC50 was 0.62 µM (TDO2 (Homo sapiens, UniProt P48775); added: L-tryptophan 2 mM).
For `COc1cc2nccc(Oc3cc(Cl)c(NC(=S)NC4CC4)cc3F)c2cc1C(N)=O`, the IC50 was 0.713 µM (FGFR1).
For `CN1Cc2c(Cl)cc(Cl)cc2C(c2ccc(S(=O)(=O)NCCOCCOCCNC(=O)C(O)C(O)C(=O)NCCOCCOCCNS(=O)(=O)c3ccc(C4CN(C)Cc5c(Cl)cc(Cl)cc54)cc3)cc2)C1` (stereo not drawn), the IC50 was 0.1 µM (Sodium/hydrogen exchanger 3 (Rattus norvegicus, UniProt P26433); intracellular pH recovery, inhibitor, pH-sensitive dye; opossum kidney cells, transfected).
`C#CCCCC(=O)NCCCC[C@H](NC(=O)[C@@H](NC(=O)[C@H](CO)NC(=O)[C@@H]1CCCN1C(=O)[C@H](CO)NC(=O)[C@H](Cc1ccc(O)cc1)NC(=O)[C@H](CCSC)NC(=O)[C@H](C)NC(=O)[C@H](CCSC)NC(=O)[C@H](CO)NC(=O)[C@@H]1CCCN1C(=O)[C@H](Cc1ccc(O)cc1)NC(=O)[C@@H](N)CC(=O)O)C(C)C)C(=O)O` gave an IC50 of > 200 µM (Ephrin type-A receptor 2, extracellular domain (EPHA2, Homo sapiens, UniProt P29317); ephrin-A5 binding, inhibitor, ELISA).
`CC[C@H](C)[C@H](NC(=O)[C@H](CO)NC(=O)[C@H](Cc1ccc(O)cc1)NC(=O)[C@H](CC(=O)O)NC(=O)[C@H](CO)NC(=O)[C@@H](NC(=O)[C@H](Cc1ccccc1)NC(=O)[C@@H](NC(=O)CNC(=O)[C@H](CCC(=O)O)NC(=O)[C@H](C)NC(=O)[C@@H](N)Cc1ccc(O)cc1)[C@@H](C)O)[C@@H](C)CC)C(=O)N[C@@H](C)C(=O)N[C@@H](CCSC)C(=O)N[C@@H](CC(=O)O)C(=O)N[C@@H](CCCCN)C(=O)N[C@H](C(=O)N[C@@H](CCCNC(=N)N)C(=O)N[C@@H](CCC(N)=O)C(=O)N[C@@H](CCC(N)=O)C(=O)N[C@@H](CC(=O)O)C(=O)N[C@@H](Cc1ccccc1)C(=O)N[C@H](C(=O)N[C@@H](CC(N)=O)C(=O)N[C@@H](Cc1c[nH]c2ccccc12)C(=O)N[C@@H](CC(C)C)C(=O)N[C@@H](CC(C)C)C(=O)N[C@@H](C)C(=O)N[C@@H](CCC(N)=O)C(=O)N[C@@H](CCCNC(=N)N)C(=O)NCC(=O)N[C@@H](CCCCN)C(=O)N[C@@H](CCCCN)C(=O)N[C@@H](CO)C(=O)N[C@@H](CC(=O)O)C(=O)N[C@@H](Cc1c[nH]c2ccccc12)C(=O)N[C@@H](CCCCN)C(=O)N[C@@H](Cc1c[nH]cn1)C(=O)N[C@@H](CC(N)=O)C(=O)N[C@H](C(=O)N[C@H](C(=O)N[C@@H](CCC(N)=O)C(=O)O)[C@@H](C)O)[C@@H](C)CC)C(C)C)[C@@H](C)CC` has an IC50 of 0.002 µM (GIPR (Homo sapiens, UniProt P48546); ligand displacement in cells, radioligand).
With `CCOC(=O)N1CCN(C(=O)[C@H](Cc2cccc(C(=N)N)c2)NS(=O)(=O)c2c(C(C)C)cc(C(C)C)cc2C(C)C)CC1` the IC50 was 2.2 µM (TMPRSS2; enzyme activity, inhibitor, fluorescence).
`CCCN(CC(=O)N(CCC)CC(=O)N(CCC)CC(=O)N(CCC)CC(=O)N(CC(=O)N(CCC)CC(=O)N(CCC)CC(=O)N(CCC)CC(=O)N(CCC)CC(=O)N(CC(=O)N(CCC)CC(=O)N(CCC)CC(=O)N(CCC)CC(=O)N(CCC)CC(=O)N(CC(N)=O)Cc1cn(CCCNC(=O)CCCOc2cccc(-c3nc4ccc(-c5nc6ccc(N7CCN(C)CC7)cc6[nH]5)cc4[nH]3)c2)nn1)Cc1cn(CCCNC(=O)CCCOc2cccc(-c3nc4ccc(-c5nc6ccc(N7CCN(C)CC7)cc6[nH]5)cc4[nH]3)c2)nn1)Cc1cn(CCCNC(=O)CCCOc2cccc(-c3nc4ccc(-c5nc6ccc(N7CCN(C)CC7)cc6[nH]5)cc4[nH]3)c2)nn1)C(=O)CNCc1cn(CCCNC(=O)CCCOc2cccc(-c3nc4ccc(-c5nc6ccc(N7CCN(C)CC7)cc6[nH]5)cc4[nH]3)c2)nn1` gave an IC50 of 0.39 ± 0.11 µM (MBNL1–r(CUG)109 complex; MBNL1 displacement; added: bulk yeast tRNA competitor).
For `CNC(=O)c1ccc(-c2cccc(NC(=O)Cc3cc(C(=O)c4ccc([S+](C)[O-])cc4)c4occc4c3)c2)cc1` (stereo not drawn), the IC50 was 3.9 µM (DDR1; cell-free assay).
The IC50 of `NC(c1ccccc1)(c1ccccc1)c1ccccc1Cl` is reported as 4 µM (Gap junction alpha-8 protein (Gja8, Mus musculus, UniProt P28236); gap junction current, inhibitor, dual whole-cell voltage clamp; transfected mouse N2a cell pairs).
With `O=C(Cn1ccnc1)N[C@H]1C[C@@H]1c1ccc(OCc2ccccc2)cc1` the IC50 was 0.8 µM (Aromatase (CYP19A1, Homo sapiens, UniProt P11511); enzyme activity, inhibitor, fluorescence).
With `COc1ccc2cc(C(=O)NCCCN3CCC(Cc4ccccc4)CC3)ccc2c1` the IC50 was 0.23 to 0.45 µM (SLC6A4 (Homo sapiens, UniProt P31645); transporter uptake).
`CCC1(CC)C[C@@H](NC(=O)Nc2cccc3c(C)nccc23)c2cc(F)ccc2O1` has an IC50 of 0.112 µM (Trpv1; calcium influx, antagonist, FLIPR; HEK293 expressing rat TRPV1; added: N-arachidonoyl-dopamine 3 µM).
The IC50 of `COc1cc2nccc(Oc3ccc(N4C(=O)CNC4=S)c(Cl)c3)c2cc1C(N)=O` is reported as 1.26 µM (FGFR1).
With `O=c1c(O)c(-c2ccccc2)oc2c1ccc1ccccc12` the IC50 was 15.8 µM (KMO (Homo sapiens, UniProt O15229); enzyme activity, inhibitor, absorbance).
For `O=C(Nc1ccc(S(=O)(=O)Nc2nccs2)cc1)c1cc(-c2ccco2)nc2ccccc12`, the IC50 was 0.7 µM (Kpna2, with ChREBP NLS peptide (Mus musculus, UniProt P52293); NLS peptide binding, fluorescence polarization; high-affinity site, added: ChREBP NLS peptide).
The IC50 of `CCCCCCCCc1ccc(CC[C@](N)(/C=C/P(=O)(O)O)CO)cc1` is reported as 24 ± 5.7 µM (SPHK1 (Homo sapiens, UniProt Q9NYA1); enzyme activity, inhibitor).
For `Cc1ccc(-c2nc(Nc3nc4ccccc4o3)ncc2C#N)cc1`, the IC50 was 0.09 µM (Grm5 (Rattus norvegicus, UniProt P31424); calcium signal, antagonist).
`c1ccc(-c2cc3ccccc3o/c2=N\c2ccc3ccc4cccc5ccc2c3c45)cc1` gave an IC50 of 0.0106 µM (PTGS2 (Homo sapiens, UniProt P35354); enzyme activity, inhibitor).
`CC/C(=C\c1ccc(OCC(=O)NC(C(=O)N2CCSCC2)c2ccccc2)cc1)[N+](=O)[O-]` (stereo not drawn) has an IC50 of 7.3 µM (Papain (Carica papaya, UniProt P00784); enzyme activity, inhibitor, fluorescence; pH 5.5).
`O=C(O)[C@@H]1[C@@H](OCCNC(=O)C(F)(F)F)[C@H](O)[C@@H](O)[C@@H]2O[C@@H]21` gave an IC50 of 1.5 µM (Heparanase (HPSE, Homo sapiens, UniProt Q9Y251); enzyme activity, inhibitor; pH 5, with preincubation).
For `C#Cc1ccc2c(=O)[nH]nc(Cc3ccc(F)c(C(=O)N4CCN(C(=O)C=C)CC4)c3)c2c1`, the IC50 was 0.275 µM (Protein mono-ADP-ribosyltransferase PARP16, transmembrane domain deleted (PARP16, Homo sapiens, UniProt Q8N5Y8); auto-MARylation, inhibitor; preincubated 30 min, added: NAD+ 400 µM).
The IC50 of `CC(=O)Nc1nnc([S+]([O-])CC(=O)C23CC4CC(CC(C4)C2)C3)s1` (stereo not drawn) is reported as 0.333 µM (HSD11B1 (Homo sapiens, UniProt P28845); enzyme activity in cells, inhibitor).
With `Cc1ccc(C(=O)Nc2cccc(C(F)(F)F)c2)cc1-c1ccc2c(-c3cnn(C4CC4)c3)n[nH]c2c1` the IC50 was 0.0141 µM (DDR1; enzyme activity, inhibitor, ELISA).
With `O=c1c(OCc2ccccc2)c(-c2ccccc2)oc2ccccc12` the IC50 was 1.02 ± 0.02 µM (β-glucosidase; enzyme activity, inhibitor).
The IC50 of `Cc1cccc2c1N(C(=O)CSc1ccc(C(F)(F)F)cn1)CCC2` is reported as 3 µM (TRPV3 (Homo sapiens, UniProt Q8NET8); calcium flux, inhibitor; HEK293 overexpressing target; 30 min preincubation, added: carvacrol 300 µM).
With `O=C(O)c1ccccc1-c1c2ccc(=O)cc-2oc2cc(O)ccc12` the IC50 was > 100 µM (Ubiquitin-conjugating enzyme E2 B (Homo sapiens, UniProt P63146); enzyme activity, inhibitor).
`O=C(Nc1ccc(C(=O)Nc2ccc(C(=O)Nc3ccc(S(=O)(=O)O)c4cc(S(=O)(=O)O)cc(S(=O)(=O)O)c34)cc2)cc1)Nc1ccc(C(=O)Nc2ccc(C(=O)Nc3ccc(S(=O)(=O)O)c4cc(S(=O)(=O)O)cc(S(=O)(=O)O)c34)cc2)cc1` gave an IC50 of > 180 µM (Plasminogen (PLG, Homo sapiens, UniProt P00747); enzyme activity, inhibitor, absorbance; pH 7.4).
`COc1cc2nccc(Oc3ccc4c(c3)CN(CC(F)F)C(=O)N4)c2cc1C(N)=O` has an IC50 of 6.04 µM (FGFR1).
`O=C(O)[C@@H]1Cc2c([nH]c3ccccc23)[C@@H](c2ccc(F)cc2Cl)N1` has an IC50 of 0.1 ± 0.01 µM (MEP cytidylyltransferase IspD; enzyme activity, inhibitor, fluorimetric pyrophosphate; 60 nM enzyme).
`CCCCCCCCN(CCC(=O)Nc1ccccc1)C(=O)c1ccccn1` gave an IC50 of 1.4 µM (Protein-S-isoprenylcysteine O-methyltransferase (Homo sapiens, UniProt O60725); enzyme activity, inhibitor; Sf9 membranes; added: biotin-farnesyl-L-cysteine).
`O=C(O)[C@@H]1Cc2c([nH]c3ccccc23)[C@@H](c2ccc(C(F)(F)F)cc2C(F)(F)F)N1` has an IC50 of > 5 µM (MEP cytidylyltransferase IspD; enzyme activity, inhibitor, fluorimetric pyrophosphate; 60 nM enzyme).
`NC(=S)Nc1ccccc1[N+](=O)[O-]` has an IC50 of 4800 ± 1300 µM (Urea transporter 1 (Slc14a1, Rattus norvegicus, UniProt P97689); urea transport, inhibitor; rat erythrocytes; 15 min).
`Cc1cc2c(NC(=O)N[C@@H]3CC(C)(C)Oc4c(OC(F)(F)F)cccc43)cccc2cn1` has an IC50 of 0.429 µM (Trpv1; calcium signal, antagonist, fluorescence).
`CC(=O)SCC(=O)c1ccc(NS(=O)(=O)c2ccc(OCCCN(C)C)cc2)nc1` gave an IC50 of 0.41 µM (HDAC (Lucilia cuprina egg nuclear extract); enzyme activity, inhibitor, fluorometric).

Excerpt of the above:
For `COc1cc2nccc(Oc3cc(Cl)c(NC(=S)NC4CC4)cc3F)c2cc1C(N)=O`, the IC50 was 0.713 µM (FGFR1).
For `Cc1ccc(-c2nc(Nc3nc4ccccc4o3)ncc2C#N)cc1`, the IC50 was 0.09 µM (Grm5 (Rattus norvegicus, UniProt P31424); calcium signal, antagonist).
`C#CCCCC(=O)NCCCC[C@H](NC(=O)[C@@H](NC(=O)[C@H](CO)NC(=O)[C@@H]1CCCN1C(=O)[C@H](CO)NC(=O)[C@H](Cc1ccc(O)cc1)NC(=O)[C@H](CCSC)NC(=O)[C@H](C)NC(=O)[C@H](CCSC)NC(=O)[C@H](CO)NC(=O)[C@@H]1CCCN1C(=O)[C@H](Cc1ccc(O)cc1)NC(=O)[C@@H](N)CC(=O)O)C(C)C)C(=O)O` gave an IC50 of > 200 µM (Ephrin type-A receptor 2, extracellular domain (EPHA2, Homo sapiens, UniProt P29317); ephrin-A5 binding, inhibitor, ELISA).
For `O=C(Nc1ccc(S(=O)(=O)Nc2nccs2)cc1)c1cc(-c2ccco2)nc2ccccc12`, the IC50 was 0.7 µM (Kpna2, with ChREBP NLS peptide (Mus musculus, UniProt P52293); NLS peptide binding, fluorescence polarization; high-affinity site, added: ChREBP NLS peptide).
`CC/C(=C\c1ccc(OCC(=O)NC(C(=O)N2CCSCC2)c2ccccc2)cc1)[N+](=O)[O-]` (stereo not drawn) has an IC50 of 7.3 µM (Papain (Carica papaya, UniProt P00784); enzyme activity, inhibitor, fluorescence; pH 5.5).
The IC50 of `COc1cc2nccc(Oc3ccc(N4C(=O)CNC4=S)c(Cl)c3)c2cc1C(N)=O` is reported as 1.26 µM (FGFR1).
